# Assay results from different studies.
# Every numbered part comes from another study and shows a few of its results, in no order.

# Sample 1
# Target: Ras GTPase-activating protein-binding protein 1, RRM domain (G3BP1, Homo sapiens, UniProt Q13283)
# UniProt Q13283, sequence (whole entry, looked up): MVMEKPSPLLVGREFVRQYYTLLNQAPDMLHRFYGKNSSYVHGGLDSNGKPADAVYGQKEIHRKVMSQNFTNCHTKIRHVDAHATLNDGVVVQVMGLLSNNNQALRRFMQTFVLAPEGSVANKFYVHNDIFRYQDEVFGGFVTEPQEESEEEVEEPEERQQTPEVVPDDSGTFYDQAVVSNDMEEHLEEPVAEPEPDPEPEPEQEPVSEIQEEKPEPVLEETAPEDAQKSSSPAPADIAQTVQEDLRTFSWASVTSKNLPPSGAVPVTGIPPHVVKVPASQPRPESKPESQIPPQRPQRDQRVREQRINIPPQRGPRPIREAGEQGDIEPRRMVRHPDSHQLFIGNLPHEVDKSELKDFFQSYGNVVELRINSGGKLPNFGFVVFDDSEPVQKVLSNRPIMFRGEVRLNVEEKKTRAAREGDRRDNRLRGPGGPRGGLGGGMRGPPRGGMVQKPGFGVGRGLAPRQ
# Technique: RNA Bind-n-Seq
# Form: RNA
# Sample: in vitro
# Tested at: 1 µM
# Notes: whole 134-nt RNA, ends assumed
# Added: 150 mM KCl
# Relative to: input library
# Direction: higher = stronger binding
Strand,log2 enrichment
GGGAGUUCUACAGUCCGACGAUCCUGUGCUACACAUCGUAUGUACCGAAUCGGGGAAAAAAAGGGGUUUGGGGUUUUUUUGGGGAAAGUAUUAUGUUACGCCGUUCGGAUCUGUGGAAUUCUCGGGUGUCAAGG,1.04
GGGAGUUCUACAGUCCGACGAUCCCUGUGCUACACAUCGUAUGUACCGAAUCGGGGCCCCCCGGCCCCCCGGGCCCCCCGGGGAAAGUAUUAUGUUACGCCGUUCGGAUCUGCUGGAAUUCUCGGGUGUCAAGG,-0.564
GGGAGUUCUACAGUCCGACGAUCCUCAAGUCCUGUGCUACACAUCGUAUGUACCGAAUCGGGCCGGGCCGGGGCCGGAAAGUAUUAUGUUACGCCGUUCGGAUCUGCACUUCCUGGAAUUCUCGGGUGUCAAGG,-0.921
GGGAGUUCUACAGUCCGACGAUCUCAAGUCCUGUGCUACACAUCGUAUGUACCGAAUCGGGCCCGGGCCCGGGCCCGGAAAGUAUUAUGUUACGCCGUUCGGAUCUGCACUUCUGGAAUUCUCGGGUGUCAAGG,-0.984
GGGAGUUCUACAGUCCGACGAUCUAACUUUAGAGGAGGAUCUGAUGGAUAUGGCAGUGGACUUGGAUUUGGGGAUGGCUAUAAUGGGUAUGGAGGAGGACCUGGAGGUGGCAAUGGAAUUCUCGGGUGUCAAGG,-0.746
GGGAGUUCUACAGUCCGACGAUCGCCGGAAGUAAAAACAAAUGGAAAUGCUUCGGAUAGUGGCAGGGGUGGGGGUUGCUAAGGAAAGGGUGGGAUGGGAGUGGGUAAAGAGUUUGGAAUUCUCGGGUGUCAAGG,1.01
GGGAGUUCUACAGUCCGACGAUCUCAAGUCCUGUGCUACACAUCGUAUGUACCGAAUCGGGGAAGGGGAAGGAAGGGAAAGUAUUAUGUUACGCCGUUCGGAUCUGCACUUCCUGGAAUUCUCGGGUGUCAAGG,-0.117

# Sample 2
# Target: Interferon regulatory factor 5, full length, phosphomimetic (IRF5, Homo sapiens, UniProt Q13568-2, residues 1-514, K96S/S451D/S453D/S456D/S462D)
# Technique: protein-binding microarray
# Form: double-stranded DNA, one strand shown
# Sample: in vitro
# Tested at: 250 nM
# Notes: 60-bp whole probe
# Added: salmon DNA 0.4 mg/ml
# Relative to: random background probes
# Direction: higher = stronger binding
# Constant ends, left off below: GCCTAGCAC … GTCTTGATTCGCTTGACGCTGCTG
Strand,log fluorescence [z-score]
TTAGGACTGCTACTACTTTAGTGCTAG,-0.3
GACGTACTGCTTTTCCTGACGTGCTAG,0.00182
GACGATTCCACTTTCGAGACGTGCTAG,6.86
TTAGATATCGGGACTGGAGTAGTGCTA,1.12
GACGATTTCAGTATGGAGACGTGCTAG,1.37
TTAGGTCTTCTTATCCTTTAGTGCTAG,0.171
TTAGGTTTGCTTTCCCTTTAGTGCTAG,1.58

# Sample 3
# Target: Protein C-ets-1 (ETS1, Homo sapiens, UniProt P14921, residues 1-441, full length assumed)
# UniProt P14921, sequence (whole entry, looked up): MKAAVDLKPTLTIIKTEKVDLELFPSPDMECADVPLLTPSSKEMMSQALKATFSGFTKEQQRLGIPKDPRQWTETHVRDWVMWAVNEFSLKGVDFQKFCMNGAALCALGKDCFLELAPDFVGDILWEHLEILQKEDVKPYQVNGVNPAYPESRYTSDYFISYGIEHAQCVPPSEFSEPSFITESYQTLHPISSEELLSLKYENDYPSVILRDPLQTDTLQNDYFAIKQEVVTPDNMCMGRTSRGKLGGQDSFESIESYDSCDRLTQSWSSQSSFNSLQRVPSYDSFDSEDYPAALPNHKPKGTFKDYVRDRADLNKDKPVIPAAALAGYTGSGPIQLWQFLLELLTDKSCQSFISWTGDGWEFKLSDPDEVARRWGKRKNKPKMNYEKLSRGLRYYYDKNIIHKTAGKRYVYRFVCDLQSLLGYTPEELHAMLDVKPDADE
# Technique: protein-binding microarray
# Form: double-stranded DNA, one strand shown
# Sample: in vitro
# Tested at: not given
# Notes: k-mer, scored over probes, only values ≥0.25
# Direction: higher = stronger binding
Strand,E-score
CCGGATCC,0.437
AAGGAAAT,0.442
AATACCGG,0.34
CCGCCGGA,0.429
GGAAGGCA,0.326

# Further values, each from its own experiment
Molecule,target,assay,system,setting,scale,endpoint,result
"PhoQ, residues 284 288 289 292 302 303 NLCILV","PhoP, residues 12 14 15 18 19 NIMAP (Escherichia coli, UniProt P23836)","Sort-seq, item: YFP reporter",E. coli,"PhoQ-PhoP variant library, added: 10 µM Mg2+","relative to: high Mg2+ state, higher = stronger signaling",fold induction,0.852
